Assay results pooled from the literature.
A part holds a random share of what one study measured.

Set 1
Target: Sal-like protein 4, full length isoform A (SALL4, Homo sapiens, UniProt Q9UJQ4, residues 1-1053)
Sequence of UniProt Q9UJQ4 (whole entry, looked up): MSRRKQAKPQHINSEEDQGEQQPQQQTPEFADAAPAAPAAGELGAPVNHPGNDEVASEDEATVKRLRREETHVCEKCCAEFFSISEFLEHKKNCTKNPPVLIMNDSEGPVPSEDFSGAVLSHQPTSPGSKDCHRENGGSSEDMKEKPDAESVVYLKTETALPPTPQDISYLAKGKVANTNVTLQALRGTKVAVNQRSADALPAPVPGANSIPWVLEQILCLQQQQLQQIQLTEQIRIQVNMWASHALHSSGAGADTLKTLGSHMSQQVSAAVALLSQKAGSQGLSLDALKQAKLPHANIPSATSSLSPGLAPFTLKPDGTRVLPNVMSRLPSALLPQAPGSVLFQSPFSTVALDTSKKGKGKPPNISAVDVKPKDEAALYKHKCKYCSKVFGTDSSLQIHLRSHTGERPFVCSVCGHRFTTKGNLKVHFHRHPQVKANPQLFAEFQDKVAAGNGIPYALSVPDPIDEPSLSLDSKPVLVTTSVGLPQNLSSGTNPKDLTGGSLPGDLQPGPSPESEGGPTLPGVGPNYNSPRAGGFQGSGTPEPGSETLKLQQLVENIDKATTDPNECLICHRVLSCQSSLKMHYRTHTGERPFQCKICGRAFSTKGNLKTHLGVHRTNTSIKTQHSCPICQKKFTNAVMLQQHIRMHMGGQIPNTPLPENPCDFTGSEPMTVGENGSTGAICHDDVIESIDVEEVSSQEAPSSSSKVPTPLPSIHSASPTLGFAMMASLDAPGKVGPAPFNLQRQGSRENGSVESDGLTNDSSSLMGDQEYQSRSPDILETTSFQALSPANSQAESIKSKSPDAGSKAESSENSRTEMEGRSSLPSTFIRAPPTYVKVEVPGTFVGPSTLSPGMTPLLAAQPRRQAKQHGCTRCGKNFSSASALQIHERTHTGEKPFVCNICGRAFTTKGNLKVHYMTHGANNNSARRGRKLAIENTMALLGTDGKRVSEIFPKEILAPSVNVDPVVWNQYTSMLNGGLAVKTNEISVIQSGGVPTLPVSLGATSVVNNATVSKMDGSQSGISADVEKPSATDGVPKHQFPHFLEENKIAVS
Technique: universal PBM
Molecule type: double-stranded DNA, one strand shown
Matrix: in vitro
Concentration: 600 nM
Setting: 8-mer, flanks averaged, mean of replicates
Reading: higher = stronger binding
| Strand | E-score |
| --- | --- |
| AGCTGTGG | -0.221 |
| AAACCGCT | -0.168 |
| CAGTTTCA | 0.0298 |
| TCCATGCA | 0.0268 |
| AAATGCAT | 0.206 |

Set 2
Target: Myc proto-oncogene protein, bHLH-zipper, MAX partner unstated (MYC, Homo sapiens, UniProt P01106, residues 368-449)
Sequence of UniProt P01106 (368-449, looked up): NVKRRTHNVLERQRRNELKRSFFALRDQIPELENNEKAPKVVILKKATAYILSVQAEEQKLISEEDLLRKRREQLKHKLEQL
Technique: protein-binding microarray
Molecule type: double-stranded DNA, one strand shown
Matrix: in vitro
Concentration: not given
Setting: k-mer, scored over probes, only values ≥0.25
Reading: higher = stronger binding
| Strand | E-score |
| --- | --- |
| ACATGCGT | 0.443 |
| CGTGTCTA | 0.357 |
| ATGTGTCG | 0.277 |

Further values, each from its own experiment
KAT6A winged helix 1, GST fusion: Histone acetyltransferase KAT6A, winged helix 1, GST fusion (KAT6A, Homo sapiens, UniProt Q92794, residues 1-85)
| Molecule | target | assay | system | setting | scale | endpoint | value |
| --- | --- | --- | --- | --- | --- | --- | --- |
| AAAATATG | KAT6A winged helix 1, GST fusion | protein binding microarray | double-stranded DNA, one strand shown, in vitro | not given, 8-mer, flanks averaged, mean of 2 arrays, mostly near background | baseline: not given, higher = stronger binding | E-score | -0.266 |
| PhoQ, residues 284 288 289 292 302 303 TYGVAM | PhoP, residues 12 14 15 18 19 NYFRM (Escherichia coli, UniProt P23836) | Sort-seq, measured: YFP reporter | E. coli | PhoQ-PhoP variant library, with: 10 µM Mg2+ | baseline: high Mg2+ state, higher = stronger signaling | fold induction | 10.7 |
| CCAAAGAA | KAT6A winged helix 1, GST fusion | protein binding microarray | double-stranded DNA, one strand shown, in vitro | not given, 8-mer, flanks averaged, mean of 2 arrays, mostly near background | baseline: not given, higher = stronger binding | E-score | -0.267 |
| TTCCCGAA | Histone acetyltransferase KAT6A, winged helix 2, GST fusion (KAT6A, Homo sapiens, UniProt Q92794, residues 85-181) | protein binding microarray | double-stranded DNA, one strand shown, in vitro | not given, 8-mer, flanks averaged, mean of 2 arrays, mostly near background | baseline: not given, higher = stronger binding | E-score | 0.085 |
| TTAGTAAA | KAT6A winged helix 1, GST fusion | protein binding microarray | double-stranded DNA, one strand shown, in vitro | not given, 8-mer, flanks averaged, mean of 2 arrays, mostly near background | baseline: not given, higher = stronger binding | E-score | -0.0946 |

Excerpt of the above (further values, each from its own experiment):
| Molecule | target | assay | system | setting | scale | endpoint | value |
| --- | --- | --- | --- | --- | --- | --- | --- |
| PhoQ, residues 284 288 289 292 302 303 TYGVAM | PhoP, residues 12 14 15 18 19 NYFRM (Escherichia coli, UniProt P23836) | Sort-seq, measured: YFP reporter | E. coli | PhoQ-PhoP variant library, with: 10 µM Mg2+ | baseline: high Mg2+ state, higher = stronger signaling | fold induction | 10.7 |
